Assay results from different studies.
Compare with care: the assays were run in different laboratories.
Target: Cannabinoid receptor 1 (CNR1, Homo sapiens, UniProt P21554)
UniProt P21554, sequence (whole entry, looked up): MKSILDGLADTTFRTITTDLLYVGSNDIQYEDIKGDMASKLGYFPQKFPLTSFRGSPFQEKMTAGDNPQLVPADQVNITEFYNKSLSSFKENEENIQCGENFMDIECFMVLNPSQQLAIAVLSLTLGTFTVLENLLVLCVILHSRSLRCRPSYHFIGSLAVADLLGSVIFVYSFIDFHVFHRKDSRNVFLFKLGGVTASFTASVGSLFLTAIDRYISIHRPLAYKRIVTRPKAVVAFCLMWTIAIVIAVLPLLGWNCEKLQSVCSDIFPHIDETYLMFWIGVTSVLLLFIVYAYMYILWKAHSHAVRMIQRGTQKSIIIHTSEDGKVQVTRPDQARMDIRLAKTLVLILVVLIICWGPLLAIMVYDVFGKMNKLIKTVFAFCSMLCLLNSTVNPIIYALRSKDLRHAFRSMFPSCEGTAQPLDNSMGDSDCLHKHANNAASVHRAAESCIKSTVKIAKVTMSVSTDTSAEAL

`CN1CCCCC1Cn1c2ccccc2c2cc(C(=O)c3cccc4ccccc34)ccc21` (stereo not drawn) has a Ki of 100 nM (ligand displacement, radioligand; cell membranes).
For `CCOC(=O)C(CC)(CC)NC(=O)c1ccc(N2CC(OC)C2)c(OC[C@H]2C[C@@H]2CO)n1`, the Ki was 721 nM (ligand displacement, radioligand; cell membranes).
`CC1=C[C@H]2c3c(O)cc(CCc4ccccc4)cc3OC(C)(C)[C@@H]2CC1` has a Ki of 127 nM (ligand displacement, radioligand; cell membranes).
`CCCCCn1cc(C(=O)c2ccc(OC)cc2)c2ccccc21` has a Ki of 7300 nM (ligand displacement, radioligand; cell membranes).
`O=C(c1ccccc1I)c1cn(CCCCCF)c2ccccc12` gave a Ki of 14.7 nM (ligand displacement in cells, radioligand).
With `CCCCCn1cc(C(=O)Cc2ccccc2OC)c2ccccc21` the Ki was 110 nM (ligand displacement, radioligand; cell membranes).
With `O=C(NC12CC3CC(CC(C3)C1)C2)c1cn(CCCCCF)c2ccccc12` the Ki was 44.6 nM (ligand displacement in cells, radioligand).
`CCCCCn1c2ccccc2c2cc(C(=O)c3ccncc3)ccc21` has a Ki of 575 nM (ligand displacement, radioligand; cell membranes).
With `CCCCCn1cc(C(=O)NC23CC4CC(CC(C4)C2)C3)c2ccccc21` the Ki was 67.6 nM (ligand displacement in cells, radioligand).
`O=C(c1ccc2c(c1)c1ccccc1n2CCN1CCCCC1)c1cccc2ccccc12` has a Ki of 28.2 nM (ligand displacement, radioligand; cell membranes).
With `CCCCn1cc(C(=O)c2cccc3ccccc23)c2ccccc21` the Ki was 71.1 nM.
With `CCOC(=O)[C@](CC)(CCCSCCOCCOCCNC(=O)c1ccc(-c2c3ccc(=N)c(S(=O)(=O)O)c-3oc3c(S(=O)(=O)O)c(N)ccc23)c(C(=O)O)c1)NC(=O)c1ccc(C2CC2)c(Cc2ccc(F)cc2)n1` the Ki was 321 nM (ligand displacement, radioligand; cell membranes).

Some of these lines once more:
`CCCCCn1c2ccccc2c2cc(C(=O)c3ccncc3)ccc21` has a Ki of 575 nM (ligand displacement, radioligand; cell membranes).
`CC1=C[C@H]2c3c(O)cc(CCc4ccccc4)cc3OC(C)(C)[C@@H]2CC1` has a Ki of 127 nM (ligand displacement, radioligand; cell membranes).
